{"data": "Measured values of several laboratories", "note": "Each numbered part is a random draw from the data of one study; scales do not carry over between parts."}
{"data": "Block 1", "target": "Interferon regulatory factor 7, full length, phosphomimetic (IRF7, Homo sapiens, UniProt Q92985, residues 1-503, S471D/S472D/S475D/S476D/S477D/S483D/S484D/S487D)", "method": "protein-binding microarray", "form": "double-stranded DNA, one strand shown", "medium": "in vitro", "concentration": "2200 nM top", "setting": "60-bp whole probe", "with": "salmon DNA 0.4 mg/ml", "baseline": "random background probes", "direction": "higher = stronger binding", "constant ends, left off below": "GCCTAGCAC … GTCTTGATTCGCTTGACGCTGCTG", "Residues (chain)": "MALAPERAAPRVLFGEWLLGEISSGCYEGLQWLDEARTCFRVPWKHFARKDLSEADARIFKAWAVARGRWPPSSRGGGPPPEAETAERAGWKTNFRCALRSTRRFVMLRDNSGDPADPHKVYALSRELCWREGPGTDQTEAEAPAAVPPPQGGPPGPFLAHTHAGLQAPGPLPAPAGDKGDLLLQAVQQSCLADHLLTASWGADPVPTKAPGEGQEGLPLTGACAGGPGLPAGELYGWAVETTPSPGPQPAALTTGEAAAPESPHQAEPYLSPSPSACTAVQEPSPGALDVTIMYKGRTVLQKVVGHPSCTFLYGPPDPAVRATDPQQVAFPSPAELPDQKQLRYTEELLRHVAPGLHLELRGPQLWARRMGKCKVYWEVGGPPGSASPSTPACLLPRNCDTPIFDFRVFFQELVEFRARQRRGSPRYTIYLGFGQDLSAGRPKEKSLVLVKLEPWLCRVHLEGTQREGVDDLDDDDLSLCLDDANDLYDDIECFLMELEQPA"}
{"Strand": "TTAGATATCATTATCGATTAGTGCTAG", "fitted relative affinity [z-score]": 0.222}
{"Strand": "GACGATATCGGGTATCGAGCCGTGCTA", "fitted relative affinity [z-score]": 0.0306}
{"Strand": "GACGGACTGGATATCGGGACGTGCTAG", "fitted relative affinity [z-score]": -0.458}
{"Strand": "TCACACATATAATTTTGTACTGTGCTA", "fitted relative affinity [z-score]": 0.426}
{"Strand": "TTAGGTCTCGGTCTAGGTTAGTGCTAG", "fitted relative affinity [z-score]": 0.311}
{"Strand": "TACGGTTTCGGGACTGGGGACGTGCTA", "fitted relative affinity [z-score]": 4.04}
{"Strand": "GACGGACTGGGGTACCGGGACGTGCTA", "fitted relative affinity [z-score]": -1.41}
{"Strand": "CTGGTTTTACTTTCTATCTCGTGCTAG", "fitted relative affinity [z-score]": 5.11}
{"Strand": "TTAGGACTGCTTCTCCCTTAGTGCTAG", "fitted relative affinity [z-score]": 0.827}
{"Strand": "TCACCTCTTTCTCTGCTACTGTGCTAG", "fitted relative affinity [z-score]": 2.57}
{"Strand": "TTAGATTGCAGTCTCGATTAGTGCTAG", "fitted relative affinity [z-score]": 0.289}
{"Strand": "GACGGTTTCCGGACTGGGGACGTGCTA", "fitted relative affinity [z-score]": 1.17}
{"Strand": "ATGCCTTTCTCTTGGAGCTTGTGCTAG", "fitted relative affinity [z-score]": 1.63}
{"Strand": "CCCTCCCTAATTCTGATTGGGTGCTAG", "fitted relative affinity [z-score]": 0.609}
{"Strand": "TTAGGTTCTGGTTTCGGTTAGTGCTAG", "fitted relative affinity [z-score]": 6.98}
{"Strand": "GAGGAGGGGCTGTTACTCTCGTGCTAG", "fitted relative affinity [z-score]": -0.248}
{"data": "Block 2", "target": "RNA binding protein fox-1 homolog 2, RRM domain, GST-SBP tag (RBFOX2, Homo sapiens, UniProt O43251-10, residues 100-194)", "method": "RNA Bind-n-Seq", "form": "RNA", "medium": "in vitro", "concentration": "365 nM", "setting": "natural RNA segment, single round, ends assumed", "baseline": "no-protein control", "direction": "higher = stronger binding", "Target sequence (chain)": "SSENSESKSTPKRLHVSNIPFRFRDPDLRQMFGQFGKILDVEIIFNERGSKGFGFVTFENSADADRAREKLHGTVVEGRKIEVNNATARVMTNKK"}
{"Strand": "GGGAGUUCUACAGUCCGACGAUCGGGUAGGCAGUGGGGAGUGAGGCCCAAGGGUAGGGUCUGGAUCUCAGAGUAAACUGCCUUGUCUUCCUCAGGUUUUGGAGCCCUGUGAGUUCAAUAAACCUUUUAUGUGGUGGAAUUCUCGGGUGCCAA", "RBNS enrichment (R)": 0.466}
{"Strand": "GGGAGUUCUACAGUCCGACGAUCCCAUGGCCCAGUCACUCAGGGGCGAGUUUCUUUUCUAACAUAGCCCUUUCUUUGCCAUGAGGCCAUGAGGCCCGCUUCAUCCUUUUCUAUUUCCCUAGAACCUUAAUGGUUGGAAUUCUCGGGUGCCAA", "RBNS enrichment (R)": 0.268}
{"Strand": "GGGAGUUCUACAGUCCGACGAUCUGAAAGUGUUACUCAGAAUUGUCAUAGUUUUUUUCCCCCCAUCUUUGUGCUAAAACAUGGAAAAUUGUCACUGUGUUGAUGAGGUUUCCCCCAUUCUGCUGCCUUUGGGAUGGAAUUCUCGGGUGCCAA", "RBNS enrichment (R)": 0.586}
{"Strand": "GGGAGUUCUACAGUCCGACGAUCAUUUGAAACCAAGGGACAAGACAACCUGCAGCUGACGCUCUGACAUUUCAUGACAGUUUCCUCUUUAGGGACAGCUGAGUUGCCAGUUGUGGGAGAGAACCCGGGGCCUGUGGAAUUCUCGGGUGCCAA", "RBNS enrichment (R)": 0.344}
{"Strand": "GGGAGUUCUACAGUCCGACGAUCUGUUUGGGUAGGGCCAUUUAACUUCCAUUAUGCCAAACUUGGGAUGGGAUUUUCGAAGCAGACAACACUAUUUCAUCGUGUUUCAAAUUGGAACCUUGAGGCUAGUUAGUUGGAAUUCUCGGGUGCCAA", "RBNS enrichment (R)": 0.934}
{"Strand": "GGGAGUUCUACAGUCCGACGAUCAGAGGGGCCUUAAGAAGGACAGUUCAUUGUAGGAAAGCAAUUCUGUACAUGAGUUAAGCAUACUUGUUGCAUUGUCUCUGCAGAUUCUAUUUUUGUUUACAAUAUUAAAAUGGAAUUCUCGGGUGCCAA", "RBNS enrichment (R)": 0.656}
{"Strand": "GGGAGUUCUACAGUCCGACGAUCUUCUCCUUAGUCUUCCUGACUCAACCCGUGGUCUCUGUCCCGCUCCCCCUCUCUGUGGCAGUUUCAUAUUUGCUAAUACGAAUUUGCUCAUUAAACAUUUUGUUGUAUUUUGGAAUUCUCGGGUGCCAA", "RBNS enrichment (R)": 0.783}
{"Strand": "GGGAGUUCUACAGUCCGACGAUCUCUGGGCCUCCCCACCUUUCCUGGGGUCUCCACAUUCCCACUAGUGGGUCUUAUGUGUGUCUGUGUCUUCUCCUUAAACACUCGCCCUGGAGUCUGUUCUCACACCUGUGUGGAAUUCUCGGGUGCCAA", "RBNS enrichment (R)": 0.227}
{"data": "Block 3", "target": "Centromere-binding protein 1, full length, N-terminal tag (CBF1, Saccharomyces cerevisiae, UniProt P17106, residues 1-351)", "method": "protein-binding microarray", "form": "double-stranded DNA, one strand shown", "medium": "in vitro", "concentration": "0.8 µM", "setting": "whole 60-bp probe, no competitor", "direction": "higher = stronger binding", "sequence of UniProt P17106 (whole entry, looked up)": "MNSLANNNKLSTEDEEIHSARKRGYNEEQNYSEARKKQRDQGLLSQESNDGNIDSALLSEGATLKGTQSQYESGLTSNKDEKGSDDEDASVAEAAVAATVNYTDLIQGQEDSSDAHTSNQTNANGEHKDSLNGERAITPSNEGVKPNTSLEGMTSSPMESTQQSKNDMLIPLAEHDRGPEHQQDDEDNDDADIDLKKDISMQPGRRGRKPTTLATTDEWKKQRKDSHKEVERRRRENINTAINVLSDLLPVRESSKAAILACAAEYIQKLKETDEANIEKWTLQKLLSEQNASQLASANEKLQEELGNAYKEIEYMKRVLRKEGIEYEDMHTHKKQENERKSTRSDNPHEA"}
{"Strand": "CTAGATATCCCTGGTCACCTTACTATCTTCCAATTCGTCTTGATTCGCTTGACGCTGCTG", "fluorescence intensity": "620 a.u."}
{"Strand": "CTAGGCGCGGAGTCGCTGATGACGCAATAGGCATTCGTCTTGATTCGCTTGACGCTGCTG", "fluorescence intensity": "490 a.u."}
{"Strand": "TGTACGAAGCTATAAAGCGTGTCTATAGTAGTTAGGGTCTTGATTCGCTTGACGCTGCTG", "fluorescence intensity": "540 a.u."}
{"Strand": "GAACTAAGGTTTGAAAACACCACGCAGCATTACTAGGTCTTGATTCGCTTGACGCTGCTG", "fluorescence intensity": "565 a.u."}
{"Strand": "GAATTATTTCATTGTCACATGCTTTTTGACTCATAGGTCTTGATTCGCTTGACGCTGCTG", "fluorescence intensity": "3110 a.u."}
{"Strand": "GAACATAGCATGCGGCTGATGTCAGATTTCGAATAGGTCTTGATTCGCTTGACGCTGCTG", "fluorescence intensity": "520 a.u."}
{"Strand": "CTACCAGTGAAATTTCACGTGATGTAATCTGATTTCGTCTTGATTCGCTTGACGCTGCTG", "fluorescence intensity": "7310 a.u."}
{"Strand": "CCTAACTACTATAATCATCACATATAGCTTCGTACAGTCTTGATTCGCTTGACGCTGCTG", "fluorescence intensity": "500 a.u."}
{"Strand": "CTAAACAGACAACAACACCTGCTTCATCAGCTGTTCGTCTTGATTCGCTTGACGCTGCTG", "fluorescence intensity": "602 a.u."}
{"Strand": "GAAATGACTAGATGTCACGAATGTTTTGGAGAATAGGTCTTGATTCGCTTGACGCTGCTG", "fluorescence intensity": "597 a.u."}
{"Strand": "CTATACTGAATAGCCCACGCACGGGTTCGGGGTTTCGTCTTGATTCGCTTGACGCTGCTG", "fluorescence intensity": "609 a.u."}
{"Strand": "CCTAACTACTATAATCACATGACATAGCTTCGTACAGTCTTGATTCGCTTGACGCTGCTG", "fluorescence intensity": "4620 a.u."}
{"Strand": "GAATTAAACTAGAGTGATGTTACTCGACTTCCTTAGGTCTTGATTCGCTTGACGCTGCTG", "fluorescence intensity": "479 a.u."}
{"Strand": "CTATTTTGCAAAATTCACACCTGAGTAATTCATTTCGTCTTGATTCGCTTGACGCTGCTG", "fluorescence intensity": "510 a.u."}
{"Strand": "CTATTACACTAAAAAGGTAACGTGTAGAGTGATTTCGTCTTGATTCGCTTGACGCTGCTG", "fluorescence intensity": "708 a.u."}
{"Strand": "GAAGCACCCCCAATCCACGTGTGTTTTATACGCTAGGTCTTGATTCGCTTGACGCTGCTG", "fluorescence intensity": "1390 a.u."}
{"Strand": "GAAATAGCGTATAGTAGGCACGTGGTAGTCCACTAGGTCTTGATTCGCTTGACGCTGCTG", "fluorescence intensity": "5000 a.u."}
{"Strand": "GAATTCTATTGAAGCAACGTGCAAGATGATCACTAGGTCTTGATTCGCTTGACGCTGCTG", "fluorescence intensity": "818 a.u."}
{"data": "Block 4", "target": "Histone acetyltransferase KAT6A, winged helix 1, GST fusion (KAT6A, Homo sapiens, UniProt Q92794, residues 1-85)", "method": "protein binding microarray", "form": "double-stranded DNA, one strand shown", "medium": "in vitro", "concentration": "not given", "setting": "8-mer, flanks averaged, mean of 2 arrays, mostly near background", "baseline": "not given", "direction": "higher = stronger binding", "Construct (chain)": "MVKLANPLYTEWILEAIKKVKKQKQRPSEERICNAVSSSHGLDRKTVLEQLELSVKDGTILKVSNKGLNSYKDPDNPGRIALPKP"}
{"Strand": "GACTGGGA", "E-score": -0.123}
{"Strand": "GATTGGGA", "E-score": -0.305}
{"Strand": "TACATGTA", "E-score": -0.0311}
{"Strand": "CGTGCTAC", "E-score": 0.0479}
{"Strand": "CTGTGTCC", "E-score": -0.0792}
{"Strand": "GCACCCAC", "E-score": 0.0302}
{"Strand": "CAGATTCC", "E-score": 0.00732}
{"Strand": "AACGTGGA", "E-score": -0.123}
{"Strand": "AAAAAAGC", "E-score": -0.0116}
{"Strand": "GCCGCCTA", "E-score": 0.343}
{"Strand": "AGCTTCTA", "E-score": -0.103}
{"Strand": "ACGGCTGG", "E-score": 0.151}
{"Strand": "TACGTGCA", "E-score": -0.0653}
{"Strand": "CCGGATAA", "E-score": 0.069}
{"Strand": "AGTTGCAA", "E-score": -0.0819}
{"Strand": "CGGCGAAG", "E-score": 0.328}
{"Strand": "AGCCCTTG", "E-score": -0.106}
{"Strand": "GTGTCCCA", "E-score": 0.034}
{"Strand": "GCAGCCGC", "E-score": 0.307}
{"Strand": "ATTGCCAA", "E-score": -0.245}
{"Strand": "ACGTTCTC", "E-score": -0.0542}
{"Strand": "CAAGTATC", "E-score": -0.207}
{"Strand": "TACCCGAA", "E-score": 0.106}
{"note": "A few entries again (block 1):"}
{"Strand": "GACGATATCGGGTATCGAGCCGTGCTA", "fitted relative affinity [z-score]": 0.0306}
{"Strand": "TTAGGTCTCGGTCTAGGTTAGTGCTAG", "fitted relative affinity [z-score]": 0.311}
{"Strand": "GACGGACTGGATATCGGGACGTGCTAG", "fitted relative affinity [z-score]": -0.458}
{"Strand": "TTAGGACTGCTTCTCCCTTAGTGCTAG", "fitted relative affinity [z-score]": 0.827}
{"Strand": "TCACCTCTTTCTCTGCTACTGTGCTAG", "fitted relative affinity [z-score]": 2.57}
